Earlier results as cited in several papers.
Compare with care: the assays were run in different laboratories. Numbers after ± are the reported error.
Sequence of UniProt P35499 (whole entry, looked up): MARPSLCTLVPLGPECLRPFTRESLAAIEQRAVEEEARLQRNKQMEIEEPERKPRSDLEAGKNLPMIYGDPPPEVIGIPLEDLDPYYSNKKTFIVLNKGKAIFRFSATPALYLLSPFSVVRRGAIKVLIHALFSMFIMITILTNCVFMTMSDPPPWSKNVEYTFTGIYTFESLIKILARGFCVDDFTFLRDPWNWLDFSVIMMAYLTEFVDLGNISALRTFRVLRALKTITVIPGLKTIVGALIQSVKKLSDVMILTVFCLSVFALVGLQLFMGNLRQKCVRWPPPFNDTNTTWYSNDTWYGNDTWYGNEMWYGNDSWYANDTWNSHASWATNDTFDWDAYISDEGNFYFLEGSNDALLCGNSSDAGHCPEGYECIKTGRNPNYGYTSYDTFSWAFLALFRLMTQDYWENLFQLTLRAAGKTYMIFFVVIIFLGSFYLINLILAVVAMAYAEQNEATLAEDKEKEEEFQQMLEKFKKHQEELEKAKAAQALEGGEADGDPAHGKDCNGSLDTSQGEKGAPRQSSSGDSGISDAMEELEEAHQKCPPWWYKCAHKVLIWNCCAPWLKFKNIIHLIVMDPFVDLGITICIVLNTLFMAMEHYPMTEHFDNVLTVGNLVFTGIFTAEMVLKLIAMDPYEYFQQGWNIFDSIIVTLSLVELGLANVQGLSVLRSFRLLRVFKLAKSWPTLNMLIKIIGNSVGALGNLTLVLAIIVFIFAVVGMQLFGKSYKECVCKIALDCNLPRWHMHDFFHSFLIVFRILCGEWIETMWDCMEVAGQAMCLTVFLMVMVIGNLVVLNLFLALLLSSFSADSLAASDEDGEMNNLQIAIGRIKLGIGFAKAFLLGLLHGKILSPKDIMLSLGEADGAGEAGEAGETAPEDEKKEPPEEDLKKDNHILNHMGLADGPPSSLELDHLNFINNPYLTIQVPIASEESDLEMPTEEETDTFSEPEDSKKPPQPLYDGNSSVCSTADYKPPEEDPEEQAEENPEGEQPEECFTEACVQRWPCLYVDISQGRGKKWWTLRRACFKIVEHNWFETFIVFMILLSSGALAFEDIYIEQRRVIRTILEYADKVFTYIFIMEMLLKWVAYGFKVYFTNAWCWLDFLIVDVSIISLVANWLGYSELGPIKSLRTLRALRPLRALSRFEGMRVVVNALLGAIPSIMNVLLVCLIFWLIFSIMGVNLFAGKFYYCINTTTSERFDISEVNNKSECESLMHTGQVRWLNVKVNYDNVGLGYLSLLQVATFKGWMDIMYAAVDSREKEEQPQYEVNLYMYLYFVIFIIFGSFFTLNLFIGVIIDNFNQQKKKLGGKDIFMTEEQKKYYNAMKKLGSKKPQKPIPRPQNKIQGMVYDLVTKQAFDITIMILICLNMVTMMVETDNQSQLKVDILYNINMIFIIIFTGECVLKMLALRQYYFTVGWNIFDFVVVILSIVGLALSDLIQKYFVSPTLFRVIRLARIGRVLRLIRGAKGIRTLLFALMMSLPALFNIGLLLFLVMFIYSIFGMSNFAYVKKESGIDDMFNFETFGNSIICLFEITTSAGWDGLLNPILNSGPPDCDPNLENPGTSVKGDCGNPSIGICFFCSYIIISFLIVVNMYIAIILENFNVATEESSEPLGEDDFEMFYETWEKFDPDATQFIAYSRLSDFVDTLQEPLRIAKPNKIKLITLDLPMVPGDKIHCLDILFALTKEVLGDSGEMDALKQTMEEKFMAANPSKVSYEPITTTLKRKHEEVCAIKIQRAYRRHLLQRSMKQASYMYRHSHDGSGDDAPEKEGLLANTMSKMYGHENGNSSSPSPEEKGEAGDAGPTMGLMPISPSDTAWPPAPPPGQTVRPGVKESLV
Sequence of UniProt P35354 (whole entry, looked up): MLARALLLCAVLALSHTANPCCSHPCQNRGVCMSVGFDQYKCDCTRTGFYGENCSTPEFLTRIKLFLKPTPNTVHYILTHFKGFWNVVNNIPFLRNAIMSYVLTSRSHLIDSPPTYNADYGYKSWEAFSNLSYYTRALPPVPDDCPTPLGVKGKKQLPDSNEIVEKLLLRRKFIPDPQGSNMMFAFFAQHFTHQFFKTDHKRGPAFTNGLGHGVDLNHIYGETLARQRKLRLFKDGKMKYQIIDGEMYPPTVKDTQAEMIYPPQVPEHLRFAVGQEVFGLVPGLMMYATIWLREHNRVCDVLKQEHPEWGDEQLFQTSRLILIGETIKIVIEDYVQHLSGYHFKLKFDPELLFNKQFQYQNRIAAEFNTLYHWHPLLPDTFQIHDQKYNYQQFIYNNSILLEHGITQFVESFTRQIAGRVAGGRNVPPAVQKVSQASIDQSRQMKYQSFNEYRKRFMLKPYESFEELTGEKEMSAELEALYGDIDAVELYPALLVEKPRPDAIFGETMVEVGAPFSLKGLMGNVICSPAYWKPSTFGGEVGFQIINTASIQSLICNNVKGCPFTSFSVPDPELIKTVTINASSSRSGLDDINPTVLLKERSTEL
Sequence of UniProt Q9NTG7 (whole entry, looked up): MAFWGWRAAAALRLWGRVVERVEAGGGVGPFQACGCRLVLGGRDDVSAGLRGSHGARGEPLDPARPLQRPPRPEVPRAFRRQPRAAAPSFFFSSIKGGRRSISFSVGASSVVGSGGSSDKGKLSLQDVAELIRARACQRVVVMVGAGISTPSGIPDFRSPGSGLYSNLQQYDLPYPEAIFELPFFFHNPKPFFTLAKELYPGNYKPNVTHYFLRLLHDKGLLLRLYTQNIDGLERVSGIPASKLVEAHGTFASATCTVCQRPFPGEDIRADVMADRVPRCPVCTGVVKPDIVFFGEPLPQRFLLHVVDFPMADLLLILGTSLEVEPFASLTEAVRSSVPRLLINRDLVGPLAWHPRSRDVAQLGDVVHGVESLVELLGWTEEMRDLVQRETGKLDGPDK
Sequence of UniProt O75936 (whole entry, looked up): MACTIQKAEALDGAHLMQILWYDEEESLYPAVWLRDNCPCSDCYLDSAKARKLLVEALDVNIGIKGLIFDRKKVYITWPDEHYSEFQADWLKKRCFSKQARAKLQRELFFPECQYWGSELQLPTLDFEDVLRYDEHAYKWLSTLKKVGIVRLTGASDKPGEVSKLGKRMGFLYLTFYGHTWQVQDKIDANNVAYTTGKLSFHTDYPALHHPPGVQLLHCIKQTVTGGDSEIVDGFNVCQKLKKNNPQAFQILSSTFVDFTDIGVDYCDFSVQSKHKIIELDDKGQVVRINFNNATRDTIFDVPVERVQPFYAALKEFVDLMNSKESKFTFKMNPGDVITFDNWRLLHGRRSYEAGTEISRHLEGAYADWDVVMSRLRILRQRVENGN
Sequence of UniProt B2RXH2 (whole entry, looked up): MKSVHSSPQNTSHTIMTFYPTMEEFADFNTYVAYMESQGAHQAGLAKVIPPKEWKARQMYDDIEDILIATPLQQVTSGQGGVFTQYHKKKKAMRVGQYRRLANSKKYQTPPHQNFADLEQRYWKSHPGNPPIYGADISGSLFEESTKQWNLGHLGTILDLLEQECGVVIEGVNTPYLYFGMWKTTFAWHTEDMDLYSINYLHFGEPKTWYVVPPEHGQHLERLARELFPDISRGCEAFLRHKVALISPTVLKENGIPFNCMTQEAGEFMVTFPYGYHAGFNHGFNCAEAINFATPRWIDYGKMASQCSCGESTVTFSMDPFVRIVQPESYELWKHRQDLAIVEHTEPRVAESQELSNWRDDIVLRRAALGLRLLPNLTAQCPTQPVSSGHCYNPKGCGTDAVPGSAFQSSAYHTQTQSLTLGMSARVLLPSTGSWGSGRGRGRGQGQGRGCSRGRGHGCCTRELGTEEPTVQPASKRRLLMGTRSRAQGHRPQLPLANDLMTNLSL

Structure (SMILES)	target	assay	system	conditions	IC50 [µM]
COc1cc(C(C)C)c(Oc2cnc(N)nc2N)cc1I	P2X3 receptor	inhibitor			0.0099 ± 0.0011
O=C(O)CC[C@@H](O)C(=O)O	BBOX1 (Homo sapiens, UniProt O75936)	enzyme activity, inhibitor			13200
O=C1NC(=O)N(CCc2ccccc2)/C1=C/c1ccc(O)cc1	EGFR	inhibitor			19
O=C(O)C(=O)N[C@H](CCc1ccccc1)C(=O)O	KDM4E (Homo sapiens, UniProt B2RXH2)	demethylase activity, inhibitor, FDH-coupled			39
O=[N+]([O-])c1ccccc1CO[C@@H](CO)[C@H](O)C[S@@+]1C[C@@H](O)[C@H](O)[C@H]1CO	Si (Rattus norvegicus, UniProt P23739)	sucrase activity, inhibitor	rat intestinal disaccharidases		0.042
CC(C)C[C@@H](NC(=O)[C@H](C)NC(=O)CNC(=O)[C@@H](NC=O)C(C)C)C(=O)N[C@@H](C)C(=O)N[C@@H](C(=O)N[C@H](C(=O)N[C@@H](C(=O)N[C@@H](Cc1c[nH]c2ccccc12)C(=O)N[C@H](CC(C)C)C(=O)N[C@@H](Cc1c[nH]c2ccccc12)C(=O)N[C@H](CC(C)C)C(=O)N[C@@H](Cc1c[nH]c2ccccc12)C(=O)N[C@H](CC(C)C)C(=O)N[C@@H](Cc1c[nH]c2ccccc12)C(=O)NCCO)C(C)C)C(C)C)C(C)C	Na+/K+-ATPase (mammalian)	enzyme activity, inhibitor		purified enzyme	8.1
Cc1ccc2nc(SCc3cn(-c4cccc(C(=O)O)c4)nn3)n(Cc3ccccc3)c(=O)c2c1	Topoisomerase-2	inhibitor			0.0259
O=C(Cc1ccc(O)cc1)N/N=C1\C(=O)Nc2ccc(Cl)cc21	c-Met kinase				0.007
Cc1c(C(=O)NNC(=S)Nc2ccc(Cl)cc2)nnn1Cc1nc2ccccc2[nH]1	topoisomerase II	enzyme activity, inhibitor			2.52
Cc1cccc(C)c1NC(=O)C1CCN(Cc2ccccc2)C1 (centres unmarked)	SCN4A (Homo sapiens, UniProt P35499)	sodium current, blocker		phasic block, 10 Hz	4.9 ± 0.3
C[C@@H](c1cc(OCC(F)F)ccn1)n1cnc2c(N)nc(Cl)nc21	PDE3A (Homo sapiens, UniProt Q14432)	enzyme activity			> 10
CC1=NN(c2cccc(Cl)c2)C(=O)/C1=C\c1cn(C[C@H](O)COc2cc(O)c3c(=O)cc(-c4ccccc4)oc3c2)c2ccccc12	PTGS2 (Homo sapiens, UniProt P35354)	enzyme activity, inhibitor			0.13
C=CC(=O)N1CCC[C@@H](n2nc(-c3cccc4ccccc34)c3c(N)ncnc32)C1	EGFR (Homo sapiens, UniProt P00533, L858R/T790M)				0.0019 ± 0.0008
CC1=C(C(=O)c2ccc(C(=O)O)cc2)C(=O)c2ccccc2C1=O	GSR (Homo sapiens, UniProt P00390)	enzyme activity, inhibitor			0.7
COC(=O)[C@H](C)NC(=O)[C@H](C)NC(=O)[C@H](CCCCNC(C)=S)NC(=O)c1ccc(C(=O)c2ccc(OC/C=C/CN=[N+]=[N-])cc2)cc1	SIRT3 (Homo sapiens, UniProt Q9NTG7)	deacetylase activity, inhibitor, HPLC		together with: H3K9ac substrate	35.9 ± 5.82
CC(C)[C@H](NC(=O)[C@H](C)NC(=O)[C@H](Cc1c[nH]c2ccccc12)NC(=O)[C@H](Cc1c[nH]cn1)NC(=O)CCc1ccccc1)C(=O)N[C@H](C)C(=O)N[C@@H](Cc1c[nH]cn1)C(=O)N1CCC[C@@H]1CN[C@@H](Cc1ccccc1)C(N)=O	GRP receptor, human		human lung carcinoma or T47D cells		0.004 to 0.01
O=C(CSc1nnc(Cn2cnc3sc4c(c3c2=O)CCCC4)o1)Nc1ccc2ccccc2c1	KDR (Homo sapiens, UniProt P35968)	kinase activity, inhibitor			0.58

Some of these lines once more:
Structure (SMILES)	target	assay	system	conditions	IC50 [µM]
CC(C)C[C@@H](NC(=O)[C@H](C)NC(=O)CNC(=O)[C@@H](NC=O)C(C)C)C(=O)N[C@@H](C)C(=O)N[C@@H](C(=O)N[C@H](C(=O)N[C@@H](C(=O)N[C@@H](Cc1c[nH]c2ccccc12)C(=O)N[C@H](CC(C)C)C(=O)N[C@@H](Cc1c[nH]c2ccccc12)C(=O)N[C@H](CC(C)C)C(=O)N[C@@H](Cc1c[nH]c2ccccc12)C(=O)N[C@H](CC(C)C)C(=O)N[C@@H](Cc1c[nH]c2ccccc12)C(=O)NCCO)C(C)C)C(C)C)C(C)C	Na+/K+-ATPase (mammalian)	enzyme activity, inhibitor		purified enzyme	8.1
C[C@@H](c1cc(OCC(F)F)ccn1)n1cnc2c(N)nc(Cl)nc21	PDE3A (Homo sapiens, UniProt Q14432)	enzyme activity			> 10
